Measurements from different studies.
± marks the error that the study gave.
Chain of UniProt P9WI71 (whole entry, looked up): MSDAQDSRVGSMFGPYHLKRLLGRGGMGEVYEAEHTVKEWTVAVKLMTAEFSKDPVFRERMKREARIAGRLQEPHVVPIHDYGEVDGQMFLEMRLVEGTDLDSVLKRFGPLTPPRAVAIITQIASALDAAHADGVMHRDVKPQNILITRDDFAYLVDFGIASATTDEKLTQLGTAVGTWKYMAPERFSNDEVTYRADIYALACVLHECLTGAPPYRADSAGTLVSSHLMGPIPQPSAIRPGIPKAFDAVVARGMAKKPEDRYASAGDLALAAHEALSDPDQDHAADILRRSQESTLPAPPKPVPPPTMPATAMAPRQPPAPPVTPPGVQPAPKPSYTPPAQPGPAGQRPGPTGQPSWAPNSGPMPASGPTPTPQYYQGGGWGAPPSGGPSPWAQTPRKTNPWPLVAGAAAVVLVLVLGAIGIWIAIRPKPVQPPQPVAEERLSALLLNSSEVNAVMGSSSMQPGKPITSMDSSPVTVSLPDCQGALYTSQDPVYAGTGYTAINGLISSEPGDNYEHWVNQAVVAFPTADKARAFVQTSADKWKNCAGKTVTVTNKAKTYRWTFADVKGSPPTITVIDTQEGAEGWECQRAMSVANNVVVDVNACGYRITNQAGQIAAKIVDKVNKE
Chain of UniProt P41143 (whole entry, looked up): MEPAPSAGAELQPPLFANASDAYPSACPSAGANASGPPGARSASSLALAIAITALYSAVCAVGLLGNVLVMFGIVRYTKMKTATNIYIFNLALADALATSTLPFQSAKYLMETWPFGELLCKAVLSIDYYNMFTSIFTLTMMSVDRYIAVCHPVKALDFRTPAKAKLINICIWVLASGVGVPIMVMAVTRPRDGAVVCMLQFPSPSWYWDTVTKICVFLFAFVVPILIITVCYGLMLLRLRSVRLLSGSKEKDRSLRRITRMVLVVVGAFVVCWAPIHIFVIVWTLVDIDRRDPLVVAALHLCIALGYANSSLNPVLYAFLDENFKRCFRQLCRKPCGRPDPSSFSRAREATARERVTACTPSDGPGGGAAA
Chain of UniProt Q7RTT9 (whole entry, looked up): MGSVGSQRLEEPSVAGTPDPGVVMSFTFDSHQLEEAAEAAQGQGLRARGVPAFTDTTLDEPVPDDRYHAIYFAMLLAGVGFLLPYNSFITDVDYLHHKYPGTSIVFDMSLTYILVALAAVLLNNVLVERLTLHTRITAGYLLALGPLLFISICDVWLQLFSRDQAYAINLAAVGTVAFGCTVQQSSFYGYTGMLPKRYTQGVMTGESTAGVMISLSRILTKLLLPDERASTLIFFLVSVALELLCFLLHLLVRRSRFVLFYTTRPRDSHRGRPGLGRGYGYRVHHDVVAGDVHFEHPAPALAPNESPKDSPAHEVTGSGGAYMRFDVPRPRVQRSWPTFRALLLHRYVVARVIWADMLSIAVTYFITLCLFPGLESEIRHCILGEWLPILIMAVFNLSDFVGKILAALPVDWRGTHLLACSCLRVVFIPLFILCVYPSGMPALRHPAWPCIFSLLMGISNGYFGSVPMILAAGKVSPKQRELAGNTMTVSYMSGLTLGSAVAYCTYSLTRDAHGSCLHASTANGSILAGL
Chain of UniProt P07711 (whole entry, looked up): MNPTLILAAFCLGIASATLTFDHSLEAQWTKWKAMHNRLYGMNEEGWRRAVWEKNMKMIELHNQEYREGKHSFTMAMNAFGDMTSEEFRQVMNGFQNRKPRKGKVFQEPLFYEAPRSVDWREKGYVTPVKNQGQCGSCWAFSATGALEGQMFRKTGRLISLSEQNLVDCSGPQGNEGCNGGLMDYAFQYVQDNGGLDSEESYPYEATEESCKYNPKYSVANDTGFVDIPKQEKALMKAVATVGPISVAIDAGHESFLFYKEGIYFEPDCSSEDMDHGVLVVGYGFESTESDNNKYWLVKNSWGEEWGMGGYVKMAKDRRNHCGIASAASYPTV
Chain of UniProt P17787 (whole entry, looked up): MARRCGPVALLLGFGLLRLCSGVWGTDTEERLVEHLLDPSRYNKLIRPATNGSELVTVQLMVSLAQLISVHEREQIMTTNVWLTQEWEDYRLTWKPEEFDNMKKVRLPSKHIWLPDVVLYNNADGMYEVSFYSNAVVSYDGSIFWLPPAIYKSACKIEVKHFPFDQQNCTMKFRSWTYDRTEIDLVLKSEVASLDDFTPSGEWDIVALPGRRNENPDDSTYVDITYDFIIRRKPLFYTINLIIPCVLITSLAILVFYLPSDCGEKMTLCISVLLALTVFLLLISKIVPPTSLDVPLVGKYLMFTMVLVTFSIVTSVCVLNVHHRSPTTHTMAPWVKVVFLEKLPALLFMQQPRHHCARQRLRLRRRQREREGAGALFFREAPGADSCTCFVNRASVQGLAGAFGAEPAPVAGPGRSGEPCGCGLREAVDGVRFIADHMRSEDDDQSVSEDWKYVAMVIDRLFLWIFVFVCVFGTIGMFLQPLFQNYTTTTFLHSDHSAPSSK
Chain of UniProt Q8NKB0 (whole entry, unmodified, looked up): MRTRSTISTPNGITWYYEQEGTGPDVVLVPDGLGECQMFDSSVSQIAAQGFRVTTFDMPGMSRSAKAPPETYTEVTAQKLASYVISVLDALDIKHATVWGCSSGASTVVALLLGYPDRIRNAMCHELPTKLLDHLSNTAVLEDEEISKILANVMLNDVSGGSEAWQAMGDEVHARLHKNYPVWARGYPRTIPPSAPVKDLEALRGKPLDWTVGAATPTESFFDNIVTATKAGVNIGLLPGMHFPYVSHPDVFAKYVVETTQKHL
Chain of UniProt P43681 (whole entry, looked up): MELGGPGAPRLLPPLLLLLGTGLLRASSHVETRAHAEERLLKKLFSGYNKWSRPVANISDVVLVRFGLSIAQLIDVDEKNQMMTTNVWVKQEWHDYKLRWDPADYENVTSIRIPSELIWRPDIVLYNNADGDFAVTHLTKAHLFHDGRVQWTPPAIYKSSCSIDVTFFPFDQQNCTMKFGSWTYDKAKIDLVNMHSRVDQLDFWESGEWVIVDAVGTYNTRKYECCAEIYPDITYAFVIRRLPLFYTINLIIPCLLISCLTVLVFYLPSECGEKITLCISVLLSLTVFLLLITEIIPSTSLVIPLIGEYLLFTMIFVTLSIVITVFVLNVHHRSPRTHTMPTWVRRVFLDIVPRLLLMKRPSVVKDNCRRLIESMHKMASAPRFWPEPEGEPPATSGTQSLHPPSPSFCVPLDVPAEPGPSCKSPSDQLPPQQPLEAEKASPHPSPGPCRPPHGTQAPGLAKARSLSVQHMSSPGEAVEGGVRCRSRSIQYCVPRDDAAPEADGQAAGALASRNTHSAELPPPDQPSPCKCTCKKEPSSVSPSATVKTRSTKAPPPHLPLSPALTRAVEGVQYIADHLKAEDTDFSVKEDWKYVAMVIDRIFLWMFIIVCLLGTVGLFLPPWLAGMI

Compound | target or system | test | system | setting | scale | measurement | value
CN[C@@](C)(C[18F])C(=O)O | MDA-MB-468 tumour model | – | host not given, heart | 15 min, tumour-bearing | – | tracer uptake | 3.1 %ID/g
CC1=C(C(=O)Nc2cc3cn[nH]c3cc2F)C(c2ccc(Cl)cc2F)N=C(c2ccnc(Cl)c2)N1 (stereo not drawn) | NIH3T3 in PANC/NIH microtissues | fibroblast toxicity | – | chronic toxicity, unit not given | relative to: AC50 ATP over AC50 NanoLUC, day 7 | therapeutic window | 2.47
Nc1ncnc2c1ncn2[C@@H]1O[C@H](COP(=O)(O)OP(=O)(O)O)[C@@H](O)[C@H]1O | – | – | mouse tissue mitochondria | concentration 12.5 to 25 µM, with: glutamate and succinate | – | ATP production increase | ~43%
Nc1ncnc2c1ncn2[C@@H]1O[C@H](COP(=O)(O)OP(=O)(O)OP(O)(O)=S)[C@@H](O)[C@H]1O | pknH (Mycobacterium tuberculosis, UniProt P9WI71) | ATP probe labelling, competitor, chemoproteomics | Mycobacterium tuberculosis, lysate | 500 µM | relative to: untreated | fold change | 11.3 fold
C[C@@H]1C[C@H]2O[C@@H]2/C=C\C=C\C(=O)Cc2c(Cl)c(O)cc(O)c2C(=O)O1 | OPRD1 (Homo sapiens, UniProt P41143) | ligand displacement, radioligand | – | 10 µM, cell membranes | – | inhibition | -27.8%
CC[C@H](C)[C@@H]1NC(=O)[C@H](CCCNC(=N)N)NC(=O)[C@H](CC(=O)O)NC(=O)[C@H](CC(C)C)NC(=O)[C@H](CCCCN)NC(=O)[C@H](CC(C)C)NC(=O)CNC(=O)[C@H](Cc2ccccc2)NC(=O)[C@@H](NC(=O)CNC(=O)[C@H](CCCCN)NC(=O)[C@H](CO)NC(=O)[C@H](CC(C)C)NC(=O)CNC(=O)[C@H](CCCCN)NC(=O)[C@H](CCCCN)NC(=O)[C@H](CC(N)=O)NC(=O)[C@H](C)NC(=O)CNC(=O)[C@H](CCCCN)NC(=O)[C@H](Cc2ccc(O)cc2)NC(=O)[C@H](CCCCN)NC(=O)[C@H](CCCNC(=N)N)NC(=O)[C@H](C)NC(=O)[C@H](CC(N)=O)NC(=O)[C@@H]2CCCN2C(=O)[C@H](Cc2c[nH]cn2)NC(=O)[C@H](CCC(=O)O)NC(=O)[C@H](CCC(N)=O)NC(=O)CNC(=O)[C@@H]2CCCN2)CSSC[C@@H](C(=O)O)NC(=O)CNC(=O)[C@H](CC(C)C)NC(=O)CNC(=O)[C@H](CO)NC(=O)[C@H](CCSC)NC(=O)[C@H](CO)NC(=O)CNC1=O | – | item: urine cGMP/creatinine | human patients with achondroplasia, urine | initial 6 months, sigmoid Emax vs Cmax | – | Emax | 10100 pmol/mg creatinine
C[n+]1ccc(-c2ccccc2)cc1 | SLC29A4 (Homo sapiens, UniProt Q7RTT9) | substrate, radiolabelled uptake | MDCK expressing YFP-tagged SLC29A4 | 1 min, 37 °C, vector background subtracted | – | Vmax | 0.62 ± 0.05 nmol/mg protein/min
CCOCc1nc2c([nH]1)c(N)nc1ccccc12 | human monocyte-derived mononuclear phagocytes | fluorogenic substrate | – | concentration not given, 2 days, with: TLR ligand maturation | – | proteasome activity | increased
Nc1nc2c(ncn2[C@@H]2O[C@H](COP(=O)(O)OP(O)(O)=S)[C@@H](O)[C@H]2O)c(=O)[nH]1 | Saccharomyces cerevisiae | vacuole fusion, inhibitor, in vitro vacuole fusion | – | 0.5 mM, 120 min, 25 °C | – | inhibition | 27%
C[C@H]1CCCC(=O)CCC/C=C/c2cc(O)cc(O)c2C(=O)O1 | zhd101 (Clonostachys rosea, UniProt Q8NKB0, M154H) | substrate, HPLC | – | 10 min, pH 5.5, 37 °C, 1% acetonitrile | – | Km | 11.7 ± 1.23 mM
C#CCCCCOC1=CC(=O)N(C(=O)/C=C/[C@H](C)NC(=O)[C@H](CC(C)C)NC(=O)[C@H](CC(C)C)OC(=O)[C@H]([C@@H](C)CC)N(C)C)C1C (stereo in doubt) | Procathepsin L (CTSL, Homo sapiens, UniProt P07711) | inhibitor | – | – | – | kinact/KI | 3.6e+06 ± 283000 M⁻¹ s⁻¹
O=C(CN1CCN(S(=O)(=O)c2ccccc2F)CC1)Nc1ccccc1F | Neuronal acetylcholine receptor; alpha4/beta2 (Homo sapiens, UniProt P17787+P43681) | inhibitor, calcium accumulation | HEK tsA201 cells | – | – | Hill coefficient | -1.5

For quick reference, copied from above:
Compound | target or system | test | system | setting | scale | measurement | value
C[C@@H]1C[C@H]2O[C@@H]2/C=C\C=C\C(=O)Cc2c(Cl)c(O)cc(O)c2C(=O)O1 | OPRD1 (Homo sapiens, UniProt P41143) | ligand displacement, radioligand | – | 10 µM, cell membranes | – | inhibition | -27.8%
CCOCc1nc2c([nH]1)c(N)nc1ccccc12 | human monocyte-derived mononuclear phagocytes | fluorogenic substrate | – | concentration not given, 2 days, with: TLR ligand maturation | – | proteasome activity | increased
